# Published values from different studies.
# Compare with care: the assays were run in different laboratories.
# CDK2 with cyclin A: Cyclin-dependent kinase 2, with cyclin A (CDK2, Homo sapiens, UniProt P24941)
# CDK2: Cyclin-dependent kinase 2 (CDK2, Homo sapiens, UniProt P24941)
# CDK2 with cyclin E1: Cyclin-dependent kinase 2, with cyclin E1 (CDK2, Homo sapiens, UniProt P24941)
Structure (SMILES),target,test,setting,endpoint,value
O=C(Nc1cc(Cc2ccccc2)[nH]n1)c1ccccc1,CDK2 with cyclin A,radiometric,added: 1 µM ATP,IC50,3 µM
Cc1cc(C)c(S(=O)(=O)N(CC(=O)O)c2ccc(Nc3ccnc(N4CCCC4)n3)cc2)c(C)c1,CDK2,"enzyme activity, inhibitor",,IC50,> 100 µM
O=c1cc(-c2ccc(O)cc2)oc2c1ccc1occc12,CDK2 with cyclin E1,"enzyme activity, inhibitor, ADP detection",,IC50,> 20 µM
CC(=O)Nc1cc(-c2c(F)cccc2F)[nH]n1,CDK2 with cyclin A,radiometric,added: 1 µM ATP,IC50,3.4 µM
CCN(CC)CC(=O)Nc1cccc(-n2cc(-c3ccc4ccc(-c5cn(-c6cccc(NC(=O)CN(CC)CC)c6)nn5)cc4c3)nn2)c1,CDK2 with cyclin A,,,IC50,> 10 µM
Cc1nc(C)c(-c2ccnc(Nc3cccc(C#N)c3)n2)s1,CDK2,"average of ITC, Octet and Thermofluor",untagged protein,Kd,1.57 µM
O=C(Nc1cc(Cc2ccccc2)[nH]n1)C1CCC1,CDK2 with cyclin A,radiometric,added: 1 µM ATP,IC50,1.1 µM
Cc1nn(-c2cccc(N)c2)c(=O)c2cnc(Nc3ccc(N4CCNCC4)cc3)nc12,CDK2 with cyclin A,"enzyme activity, inhibitor",,IC50,> 10 µM
O=C1Nc2c(Br)cccc2/C1=C1/Nc2ccccc2C1=NO,CDK2,,,IC50,> 10 µM
CNC(=O)C1CCCN(C(=O)C2CC3CCC2N3C(=O)[C@@H]2C[C@@H](O)CN2C(=O)NCc2cccc(Cl)c2F)C1 (mixture of isomers),CDK2 with cyclin E1,"enzyme activity, inhibitor, mobility shift",,IC50,0.421 µM
Cc1cc(-c2cc(=O)c3c(O)cc(O)c([C@H]4CCN(C)C[C@H]4O)c3o2)no1,CDK2 with cyclin A,"enzyme activity, inhibitor",,IC50,0.238 µM
O=c1cc(-c2cccc(O)c2)oc2c1ccc1occc12,CDK2 with cyclin E1,"enzyme activity, inhibitor, ADP detection",,IC50,> 20 µM
